Results gathered from unrelated publications.
Compare with care: the assays were run in different laboratories. ± gives the spread as reported.
PGR: Progesterone receptor (PGR, Homo sapiens, UniProt P06401)
Nr3c1: Glucocorticoid receptor (Nr3c1, Rattus norvegicus, UniProt P06536)
EPHX2: Bifunctional epoxide hydrolase 2 (EPHX2, Homo sapiens, UniProt P34913)

SMILES | target | assay | system | setting | how to read | quantity | result
Cc1nn2c(N3CCN(C)CC3)cc(-c3ccccc3)nc2c1-c1ccccc1 | GTPase KRas, with CRAF (KRAS, Homo sapiens, UniProt P01116, G12D) | FLIM-FRET | BHK cells | 2 µM |  | KRAS G12D-cRaf interaction | no effect
CCCCCCCC(=O)Nc1ccc(OC)nc1C | Cocaine esterase (CES2, Homo sapiens, UniProt O00748) | enzyme activity, substrate |  | pH 8, 37 °C, substrate 3.13 to 100 µM |  | apparent Vmax | 14 pmol/min/µg
CC[C@H](C)[C@H](NC(=O)CNC(C)=O)C(=O)N[C@@H](CCCNC(=N)N)C(=O)N[C@@H](CCC(=O)O)C(=O)N[C@@H](C)C(=O)N[C@H](C(=O)N[C@@H](CC(C)C)C(=O)N[C@@H](CCCNC(=N)N)C(=O)N[C@@H](C)C(=O)N[C@@H](Cc1c[nH]c2ccccc12)C(=O)N[C@@H](CCC(=O)O)C(=O)N[C@@H](CCCNC(=N)N)C(=O)N[C@@H](CCCNC(=N)N)C(=O)N[C@@H](Cc1ccc(O)cc1)C(=O)NCC(N)=O)[C@@H](C)O | Antirepressor protein CarS (carS, Myxococcus xanthus, UniProt Q06911) | ITC |  | pH 7.5, 25 °C |  | ΔH | -31.8 ± 0.418 kJ/mol
OC[C@H]1O[C@@H](Sc2ccccc2)[C@H](O)[C@@H](O)[C@@H]1O | SLC5A2 (Homo sapiens, UniProt P31639) | membrane depolarization, substrate, FRET | CHO expressing hSGLT2 | 10 µM | relative to: non-transfected CHO cells | fluorescence ratio | 1.29
CSc1cc(C)[nH]c(=O)c1CNC(=O)c1cc(Cl)c2c(c1C)OC(C)(C1CCC(N(C)C)CC1)O2 (stereo not shown) | EZH2 (Homo sapiens, UniProt Q15910) |  |  | activated enzyme |  | kon | 910000 M⁻¹ s⁻¹
CC1(C)CCN(Cc2ccc(C(=O)NC[C@]3(O)CCCN(c4cc(NCc5ccccc5)ncn4)C3)c(O)c2)CC1 | KIT (Homo sapiens, UniProt P10721) | kinase activity, radiometric |  | 10 µM, with: 10 µM ATP |  | remaining activity | 95%
Cc1ncsc1-c1ccc(C2(NC(=O)C3CC(O)CN3C(=O)C(NC(=O)c3ccc(COc4c(-c5c(C)c(F)cc6[nH]ncc56)c(C5CC5)cc5c(N6CC7CC6CN7)nc(OC6CCOCC6)nc45)cc3)C(C)(C)C)CC2)cc1 (stereo not shown) | GTPase KRas (KRAS, Homo sapiens, UniProt P01116, G12D) | degrader, immunoblot | AsPC-1 | 24 h |  | effective degradation concentration | ~1 µM
COc1ccc(C2=[N+]3C(=C(CCCCc4cn(C[C@@H]5[C@@H](O)[C@H](O)[C@@H](O)[C@@H]6O[C@H]56)nn4)c4ccc(-c5ccc(OC)cc5)n4[B-]3(F)F)C=C2)cc1 | GBA1 (Homo sapiens, UniProt P04062, R534H) | tryptophan fluorescence |  | pH 7.4, complex with inhibitor |  | emission maximum | 333 nm
N#CCCN1CCN(C(=S)c2ccc(-c3ccc(Cl)cc3)o2)CC1 | NPR2 (Homo sapiens, UniProt P20594) | HTRF, refers to: cGMP | HEK293 overexpressing GC-B | with: subthreshold CNP | relative to: saturating CNP | Emax | 96%
CC(=O)OC1(C(C)=O)CCC2C3C=C(CO)C4=CC(=O)CCC4(C)C3CCC21C (stereo not shown) | PGR | agonist, refers to: GREB1 | T47D | 100 nM, 8 h | relative to: ethanol vehicle | mRNA fold change | 2 ± 0.3 fold change
COC(=O)Nc1ccc2c(c1)c(Cc1ccc(C(=O)NS(=O)(=O)c3ccc(C(F)(F)F)cc3)cc1OC)cn2C | Tumor necrosis factor receptor superfamily member 1A, extracellular domain (Homo sapiens, UniProt P19438) | binding, 19F NMR |  |  |  | Hill coefficient | 1.39
CSCC[C@H](NC(=O)[C@H](CCCCN)NC(=O)[C@@H]1CCCN1C(=O)[C@H](CCC(=O)O)NC(=O)[C@H](CO)NC(=O)[C@H](CCCNC(=N)N)NC(=O)[C@H](C)NC(=O)[C@H](CS)NC(=O)CNC(=O)[C@@H](NC(=O)[C@@H]1CCCN1C(=O)[C@H](CC(N)=O)NC(=O)[C@@H](N)C(C)C)[C@@H](C)O)C(=O)N[C@@H](CO)C(N)=O | WDR5 (Homo sapiens, UniProt P61964) | binding, BLI |  |  |  | koff | 0.0053 s⁻¹
COc1ccccc1N1CCN(c2nc3c(c(=O)[nH]2)CCCC3)CC1 | PARP1 (Homo sapiens, UniProt P09874) | inhibitor, ELISA |  | up to 20 µM |  | enzyme activity | no inhibition
CCc1cc(O)cc2c(/C=N/NC(=N)NCCc3ccc(Cl)cc3)c[nH]c12 | RXFP4 (Homo sapiens, UniProt Q8TDU9, L118A) | cAMP response, agonist |  | concentration not given, L118A mutant | relative to: wild type | potency change by mutation | increased
S=C(Nc1ccc(Cl)cc1)Nc1cccc2[nH]ccc12 | Alpha-synuclein (SNCA, Homo sapiens, UniProt P37840) | oligomerization, PICUP cross-linking |  | range 3.13 to 50 µM tested, with: alpha-synuclein 60 µM |  | effective concentration | 12.5 to 50 µM
COC(=O)[C@@]1(C)C=C(C(=O)Nc2cccc(C(=O)Nc3ccc(Nc4nccc(-c5cccnc5)n4)c(C)c3)c2)C(=O)CC1 | LIM domain kinase 1 (LIMK1, Homo sapiens, UniProt P53667) | enzyme activity, inhibitor, radiometric |  | 1 µM |  | activity vs control | 38%
C=CCn1c(=O)c2ccccc2n2c(SCC(=O)Nc3ccc(NC(C)=O)cc3)nnc12 | CHRM2 (Homo sapiens, UniProt P08172) | allosteric modulator |  | with: [3H]NMS |  | log cooperativity factor | 0.73 ± 0.16
CCCCCSc1nc2c([nH]1)c(=O)n(C)c(=O)n2C | PGR | reporter gene, antagonist, MMTV-luciferase | T47D/A1-2 | 10 µM, 24 h, with: 5 nM progesterone | relative to: maximal activity | remaining activity | 58%
CCCCCCCCCCCCCCCC(=O)N[C@@H](CCCCN)C(=O)N[C@@H](CCCCN)C(=O)N[C@@H](CO)C(=O)N[C@@H](CCCNC(=N)N)C(=O)N[C@@H](C)C(=O)N[C@@H](CC(C)C)C(=O)N[C@@H](Cc1ccccc1)C(N)=O | F2R (Homo sapiens, UniProt P25116) | antagonist, light transmission aggregometry | ex vivo human platelets | 0.5 mg/kg, 14 days, with: SFLLRN 20 µM | relative to: 24 h value | recovery of platelet aggregation | 61%
Cc1cc2c(NC(=O)N[C@@H]3CC(C)(C)Oc4cc(C(F)(F)F)ccc43)c(C)ccc2cn1 | TRPA1 (Homo sapiens, UniProt O75762) | cell-based |  | no activity up to value |  | activity | > 100 µM
CC(=O)N[C@@H](Cc1c[nH]c2ccccc12)C(=O)N[C@@H](Cc1c[nH]c2ccccc12)C(=O)N[C@@H](Cc1c[nH]c2ccccc12)C(=O)N[C@@H](Cc1c[nH]c2ccccc12)C(=O)N[C@@H](Cc1c[nH]c2ccccc12)C(=O)N[C@@H](Cc1c[nH]c2ccccc12)C(=O)N[C@@H](Cc1c[nH]c2ccccc12)C(=O)NCCCC[C@@H]1NC(=O)[C@H](CCCNC(=N)N)NC(=O)[C@H](CCCNC(=N)N)NC(=O)[C@H](CCCNC(=N)N)NC(=O)[C@H](CCCNC(=N)N)NC(=O)[C@H](CCCNC(=N)N)NC1=O | PRKCA (Homo sapiens, UniProt P17252) | enzyme activity, inhibitor |  | 5 µM |  | remaining activity | 15.8%
CCCCCCCCCSc1nc2c([nH]1)c(=O)n(C)c(=S)n2C | Nr3c1 | reporter gene, antagonist, MMTV-luciferase | T47D/A1-2 | 10 µM, 24 h, with: 5 nM dexamethasone | relative to: maximal activity | remaining activity | 100%
CONC(=O)C1CCN(C(=O)c2ccc(NC(=O)NC34CC5CC(C)(CC(C)(C5)C3)C4)cc2)CC1 | EPHX2 |  |  |  |  | lipophilic ligand efficiency | 6.6
CN1CCN(CC(=O)N2N=C3/C(=C/c4ccccc4)CCCC3C2c2ccccc2)CC1 (mixture of isomers) | ALOX15 (Homo sapiens, UniProt P16050) | activator |  | 10 µM, with: arachidonic acid 100 µM | relative to: no activator | lag phase change | 110 s
CCCCSc1nc2c([nH]1)c(=S)n(C)c(=S)n2C | Nr3c1 | reporter gene, antagonist, MMTV-luciferase | T47D/A1-2 | 10 µM, 24 h, with: 5 nM dexamethasone | relative to: maximal activity | remaining activity | 91%
CC(C)C(N)C(=O)N1CCN(C(=O)c2ccc(NC(=O)NC34CC5CC(C)(CC(C)(C5)C3)C4)cc2)CC1 (stereo not shown) | EPHX2 |  |  |  |  | lipophilic ligand efficiency | 6.13
CC1=C(/C=C/C(C)=C/C=C/C(C)=C/C=O)C(C)(C)CCC1 | CNGA1 (Bos taurus, UniProt Q00194) | ion current, inhibitor, outside-out patch clamp |  | 400 nM, with: cGMP 2 mM |  | time constant of inhibition | 112 min
CNc1ccccc1C(=O)O[C@H]1C[C@H](n2cnc3c(N)ncnc32)O[C@@H]1COP(=O)(O)OP(=O)(O)O | Unconventional myosin-Va (Gallus gallus, UniProt Q02440, D297C/G292C/I296C/S293C/V295G) | van't Hoff analysis |  | concentration not given, with: EDTA |  | T∆S of ligand binding | 21.3 ± 9.2 kJ/mol

Repeated from above:
SMILES | target | assay | system | setting | how to read | quantity | result
COc1ccc(C2=[N+]3C(=C(CCCCc4cn(C[C@@H]5[C@@H](O)[C@H](O)[C@@H](O)[C@@H]6O[C@H]56)nn4)c4ccc(-c5ccc(OC)cc5)n4[B-]3(F)F)C=C2)cc1 | GBA1 (Homo sapiens, UniProt P04062, R534H) | tryptophan fluorescence |  | pH 7.4, complex with inhibitor |  | emission maximum | 333 nm
N#CCCN1CCN(C(=S)c2ccc(-c3ccc(Cl)cc3)o2)CC1 | NPR2 (Homo sapiens, UniProt P20594) | HTRF, refers to: cGMP | HEK293 overexpressing GC-B | with: subthreshold CNP | relative to: saturating CNP | Emax | 96%
CC(=O)OC1(C(C)=O)CCC2C3C=C(CO)C4=CC(=O)CCC4(C)C3CCC21C (stereo not shown) | PGR | agonist, refers to: GREB1 | T47D | 100 nM, 8 h | relative to: ethanol vehicle | mRNA fold change | 2 ± 0.3 fold change
COC(=O)Nc1ccc2c(c1)c(Cc1ccc(C(=O)NS(=O)(=O)c3ccc(C(F)(F)F)cc3)cc1OC)cn2C | Tumor necrosis factor receptor superfamily member 1A, extracellular domain (Homo sapiens, UniProt P19438) | binding, 19F NMR |  |  |  | Hill coefficient | 1.39
